Published values from different studies.
Parts stem from different laboratories: compare values within a part only. “And” joins repeats or separate records; there may be more than shown.
Sequence of UniProt Q96L34 (whole entry, looked up): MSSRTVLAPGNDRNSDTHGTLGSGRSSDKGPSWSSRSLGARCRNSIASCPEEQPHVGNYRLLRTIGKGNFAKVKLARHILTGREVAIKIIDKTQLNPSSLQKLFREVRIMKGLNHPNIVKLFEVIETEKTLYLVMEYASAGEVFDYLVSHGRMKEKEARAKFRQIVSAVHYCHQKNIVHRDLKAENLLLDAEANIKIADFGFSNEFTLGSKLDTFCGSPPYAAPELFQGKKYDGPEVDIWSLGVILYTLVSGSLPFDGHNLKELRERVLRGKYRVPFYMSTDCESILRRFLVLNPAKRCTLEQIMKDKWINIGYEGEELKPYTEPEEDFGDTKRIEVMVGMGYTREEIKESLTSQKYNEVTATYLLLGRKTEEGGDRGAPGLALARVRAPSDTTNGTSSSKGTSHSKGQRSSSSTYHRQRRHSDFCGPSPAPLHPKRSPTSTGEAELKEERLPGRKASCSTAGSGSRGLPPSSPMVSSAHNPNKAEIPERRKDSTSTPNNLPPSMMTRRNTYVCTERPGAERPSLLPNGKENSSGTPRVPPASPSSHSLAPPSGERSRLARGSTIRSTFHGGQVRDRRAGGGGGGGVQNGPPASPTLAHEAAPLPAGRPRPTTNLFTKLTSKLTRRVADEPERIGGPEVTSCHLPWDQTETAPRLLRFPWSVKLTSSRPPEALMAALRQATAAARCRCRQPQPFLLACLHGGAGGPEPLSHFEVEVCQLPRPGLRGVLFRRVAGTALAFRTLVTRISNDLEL
Sequence of UniProt O15111 (whole entry, looked up): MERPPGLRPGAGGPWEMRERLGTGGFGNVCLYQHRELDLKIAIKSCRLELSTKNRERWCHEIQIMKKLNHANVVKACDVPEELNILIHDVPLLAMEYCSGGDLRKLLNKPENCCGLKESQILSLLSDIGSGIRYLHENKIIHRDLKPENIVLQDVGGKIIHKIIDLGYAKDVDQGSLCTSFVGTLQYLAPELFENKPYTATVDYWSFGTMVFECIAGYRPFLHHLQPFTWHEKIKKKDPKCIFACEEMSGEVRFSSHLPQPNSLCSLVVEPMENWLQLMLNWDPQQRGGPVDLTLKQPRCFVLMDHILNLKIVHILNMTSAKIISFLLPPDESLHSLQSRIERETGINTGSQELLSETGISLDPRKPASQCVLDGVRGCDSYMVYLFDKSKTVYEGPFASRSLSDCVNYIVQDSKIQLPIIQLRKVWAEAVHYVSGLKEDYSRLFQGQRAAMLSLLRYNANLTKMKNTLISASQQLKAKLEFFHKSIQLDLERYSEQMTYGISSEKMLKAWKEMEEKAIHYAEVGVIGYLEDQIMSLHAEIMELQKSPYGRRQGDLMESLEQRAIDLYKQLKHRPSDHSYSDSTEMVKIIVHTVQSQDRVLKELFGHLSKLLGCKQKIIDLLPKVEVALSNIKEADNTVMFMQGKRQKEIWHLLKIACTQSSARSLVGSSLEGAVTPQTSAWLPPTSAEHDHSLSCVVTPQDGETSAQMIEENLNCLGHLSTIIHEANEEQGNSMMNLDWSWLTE
Sequence of UniProt P42336 (whole entry, unmodified, looked up): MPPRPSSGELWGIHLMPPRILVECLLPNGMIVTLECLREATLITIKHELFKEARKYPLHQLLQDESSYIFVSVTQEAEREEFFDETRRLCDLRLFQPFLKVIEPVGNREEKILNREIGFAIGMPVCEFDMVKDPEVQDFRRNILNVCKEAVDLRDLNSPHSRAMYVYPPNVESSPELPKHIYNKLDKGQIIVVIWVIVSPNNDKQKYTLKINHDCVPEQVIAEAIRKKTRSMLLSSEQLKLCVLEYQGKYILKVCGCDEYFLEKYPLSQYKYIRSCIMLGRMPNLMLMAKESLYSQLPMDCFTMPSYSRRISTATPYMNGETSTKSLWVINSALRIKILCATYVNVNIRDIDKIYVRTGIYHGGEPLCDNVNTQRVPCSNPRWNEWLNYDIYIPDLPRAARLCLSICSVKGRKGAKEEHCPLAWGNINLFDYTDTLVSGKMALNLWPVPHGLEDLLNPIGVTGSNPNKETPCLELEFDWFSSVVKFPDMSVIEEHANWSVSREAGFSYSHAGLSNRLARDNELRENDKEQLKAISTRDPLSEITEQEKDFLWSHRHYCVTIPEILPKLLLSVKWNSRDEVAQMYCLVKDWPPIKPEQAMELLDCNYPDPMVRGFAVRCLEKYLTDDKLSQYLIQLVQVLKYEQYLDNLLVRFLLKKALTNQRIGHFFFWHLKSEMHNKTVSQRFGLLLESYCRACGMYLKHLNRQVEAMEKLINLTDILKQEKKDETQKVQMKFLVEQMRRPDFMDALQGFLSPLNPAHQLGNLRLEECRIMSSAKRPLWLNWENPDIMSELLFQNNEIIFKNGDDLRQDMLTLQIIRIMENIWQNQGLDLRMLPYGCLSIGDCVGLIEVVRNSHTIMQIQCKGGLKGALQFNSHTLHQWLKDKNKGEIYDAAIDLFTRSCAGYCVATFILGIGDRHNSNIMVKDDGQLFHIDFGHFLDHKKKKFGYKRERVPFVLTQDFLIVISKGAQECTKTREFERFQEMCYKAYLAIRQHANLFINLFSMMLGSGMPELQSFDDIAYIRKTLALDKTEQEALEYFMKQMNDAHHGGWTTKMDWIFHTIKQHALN
Sequence of UniProt P48730 (whole entry, looked up): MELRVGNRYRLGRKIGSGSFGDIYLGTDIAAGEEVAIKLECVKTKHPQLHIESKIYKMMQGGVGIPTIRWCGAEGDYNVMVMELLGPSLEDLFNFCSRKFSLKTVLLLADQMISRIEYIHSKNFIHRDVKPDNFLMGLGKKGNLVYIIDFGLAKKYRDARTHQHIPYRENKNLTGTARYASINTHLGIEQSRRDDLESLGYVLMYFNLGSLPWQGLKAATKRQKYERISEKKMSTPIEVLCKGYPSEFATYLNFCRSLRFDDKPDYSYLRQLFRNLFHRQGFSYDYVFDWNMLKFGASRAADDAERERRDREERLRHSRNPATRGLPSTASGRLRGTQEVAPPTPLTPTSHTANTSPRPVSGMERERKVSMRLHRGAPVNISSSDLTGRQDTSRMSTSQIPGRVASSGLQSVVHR
Sequence of UniProt P19784 (whole entry, looked up): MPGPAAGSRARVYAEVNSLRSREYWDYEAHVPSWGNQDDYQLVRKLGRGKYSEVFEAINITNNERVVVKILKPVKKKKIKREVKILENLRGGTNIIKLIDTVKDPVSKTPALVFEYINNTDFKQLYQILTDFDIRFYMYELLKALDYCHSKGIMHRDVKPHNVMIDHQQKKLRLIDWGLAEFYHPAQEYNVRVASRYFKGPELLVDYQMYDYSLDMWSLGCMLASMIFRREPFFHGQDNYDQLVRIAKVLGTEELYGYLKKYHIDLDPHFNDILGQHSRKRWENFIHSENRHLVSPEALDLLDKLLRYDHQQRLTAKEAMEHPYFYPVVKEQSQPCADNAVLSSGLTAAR
Sequence of UniProt Q9HBH9 (whole entry, looked up): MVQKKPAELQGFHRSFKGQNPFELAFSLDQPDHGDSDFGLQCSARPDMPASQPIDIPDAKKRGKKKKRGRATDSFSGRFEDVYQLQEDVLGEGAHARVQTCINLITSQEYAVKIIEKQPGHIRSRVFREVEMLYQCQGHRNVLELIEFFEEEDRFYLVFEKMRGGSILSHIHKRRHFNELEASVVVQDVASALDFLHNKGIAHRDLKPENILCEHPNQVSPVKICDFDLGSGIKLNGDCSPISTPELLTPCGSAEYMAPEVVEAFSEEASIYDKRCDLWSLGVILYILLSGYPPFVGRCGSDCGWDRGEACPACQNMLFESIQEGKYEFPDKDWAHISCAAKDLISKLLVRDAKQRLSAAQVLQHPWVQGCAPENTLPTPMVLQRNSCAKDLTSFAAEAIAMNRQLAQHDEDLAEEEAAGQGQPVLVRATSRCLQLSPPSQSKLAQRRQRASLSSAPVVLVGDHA
Sequence of UniProt Q9BWU1 (whole entry, looked up): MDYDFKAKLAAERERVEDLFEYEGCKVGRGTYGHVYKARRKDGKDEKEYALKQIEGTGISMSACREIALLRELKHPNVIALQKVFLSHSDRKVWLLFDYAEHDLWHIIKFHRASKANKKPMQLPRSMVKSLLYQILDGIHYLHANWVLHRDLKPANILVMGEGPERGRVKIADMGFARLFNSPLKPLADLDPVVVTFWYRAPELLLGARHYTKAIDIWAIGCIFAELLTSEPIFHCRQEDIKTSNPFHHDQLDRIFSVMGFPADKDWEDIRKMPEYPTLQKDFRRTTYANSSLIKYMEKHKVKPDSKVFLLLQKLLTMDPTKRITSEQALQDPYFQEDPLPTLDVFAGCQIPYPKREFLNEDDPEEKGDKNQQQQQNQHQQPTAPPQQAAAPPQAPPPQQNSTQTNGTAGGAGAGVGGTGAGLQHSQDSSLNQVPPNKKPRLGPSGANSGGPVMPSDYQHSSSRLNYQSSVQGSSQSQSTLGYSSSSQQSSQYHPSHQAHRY

Set 1 — host: mouse; matrix: microsomes or S9; tested at: 2 µM; time: 0.5 h; measurement: remaining compound
OC(Cn1cnc2ccccc21)Cn1c2ccccc2c2ccccc21 (stereo not drawn): 0.0164%
COc1ccc(C(=O)N2CCn3c(nnc3[C@@H]3C[C@@H](O)CN3C(=O)C(C)C)C2)c(C)c1: > 100%
CCCn1c(=O)c2ccc(C(=O)NC(C)C)cc2n2c(=O)n(Cc3ccc(C)cc3)nc12: 25.9%
O=C(C1CCN(C2=NS(=O)(=O)c3ccccc32)CC1)N1CCCc2ccccc21: 0.757%
NCC1Cc2cc(F)cc(-c3ccnc4c(C(F)(F)F)cccc34)c2O1 (stereo not drawn): 97.4%

Set 2 — action: antagonist; measurement: IC50
Target: Beta-1 adrenergic receptor (ADRB1, Homo sapiens, UniProt P08588)
Sequence of UniProt P08588 (whole entry, looked up): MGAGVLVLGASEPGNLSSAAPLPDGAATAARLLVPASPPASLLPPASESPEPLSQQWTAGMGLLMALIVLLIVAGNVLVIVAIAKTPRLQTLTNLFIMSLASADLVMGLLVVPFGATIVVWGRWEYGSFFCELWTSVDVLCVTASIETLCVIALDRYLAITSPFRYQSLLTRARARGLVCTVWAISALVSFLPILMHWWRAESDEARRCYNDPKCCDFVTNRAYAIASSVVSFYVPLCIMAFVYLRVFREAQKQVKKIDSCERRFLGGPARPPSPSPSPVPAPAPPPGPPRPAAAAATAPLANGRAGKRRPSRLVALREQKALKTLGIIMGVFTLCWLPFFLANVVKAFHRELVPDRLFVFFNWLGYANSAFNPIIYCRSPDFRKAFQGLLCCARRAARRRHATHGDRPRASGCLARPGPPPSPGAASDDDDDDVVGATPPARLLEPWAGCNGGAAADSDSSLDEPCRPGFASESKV
Cc1ccc2c(CC(=O)N3CCOc4ccc(CN5CCOCC5)cc4C3)cc(=O)oc2c1: ≥ 100 µM
COc1ccc(OC)c(-c2cc(-c3ccccc3)nc3c(C)noc23)c1: ≥ 100 µM
CN1CCN(Cc2cccc(OCC(O)CN3CCc4ccccc4C3)c2)CC1 (stereo not drawn): ≥ 100 µM
O=[S+]([O-])(N[C@H]1CO[C@H]2[C@@H]1OC[C@@H]2n1nnnc1Oc1cccc(N2CCOCC2)c1)c1cccs1: ≥ 100 µM
COc1ccccc1N1CCN([C@@H]2[C@H](O)[C@H](CO)O[C@@H]2CNC(=O)c2ccc(F)c(Cl)c2)CC1: ≥ 100 µM
O=C1c2ccccc2C(=O)N1c1ccc2ccccc2n1: ≥ 100 µM

Set 3 — organism: Sarcocystis neurona; read-out: parasite growth; tested at: 10 µM; setting: second screen; reference: untreated; measurement: log2 fold change
CC(C)[N+](C)(CCOC(=O)C1c2ccccc2Oc2ccccc21)C(C)C.[Br-]: 0.49
CC(C)[N+]1(C)[C@@H]2CC[C@H]1CC(OC(=O)C(CO)c1ccccc1)C2.[Br-] (stereo partly drawn): 0.31
Fc1ccc([C@@H]2CCNC[C@H]2COc2ccc3c(c2)OCO3)cc1.O=C(O)/C=C\C(=O)O: 0.07
Nc1ncnc2c1ncn2[C@@H]1O[C@H](CO)C[C@H]1O: 0.29
COC(=O)C1=C(C)NC(C)=C(C(=O)O[C@@H]2CCCN(Cc3ccccc3)C2)[C@@H]1c1cccc([N+](=O)[O-])c1.Cl (racemic): -0.13
CCC1=C[C@@H]2CN(C1)Cc1c([nH]c3ccccc13)[C@@](C(=O)OC)(c1cc3c(cc1OC)N(C)[C@H]1[C@@](O)(C(=O)OC)[C@H](OC(C)=O)[C@]4(CC)C=CCN5CC[C@]31[C@@H]54)C2.O=C(O)C(O)C(O)C(=O)O.O=C(O)C(O)C(O)C(=O)O: 0.18

Set 4 — technique: PI flow cytometry; time: 24 h; measurement: S phase cells
SMILES: CC(C)C[C@@H]1NC(=O)[C@@H](N(C)C(=O)[C@H](CC2CCC2)NC(=O)[C@@H]2C[C@@H](F)CN2C(=O)C2(C(F)(F)F)CC(F)(F)C2)CCCCNC(=O)C2(CC2)NC(=O)[C@H](Cc2cc(Cl)ccc2Cl)N(C)C1=O
NCI-H446; 20 nM: 23.8% and 25.5% and 23.3%
NCI-H1299; 200 nM: 20.1% and 17.4% and 15%
HCC4006; 2000 nM: 31.7% and 30.1% and 21.7%

Set 5 — Compound: CCC(=N\O)/C(C)=C/c1ccc(F)cc1; tested at: 1 µM; measurement: remaining binding
Ephrin type-A receptor 8 (EPHA8, Homo sapiens, UniProt P29322); cell-free assay, competition with immobilised ligand: 100%
Serine/threonine-protein kinase MRCK beta (CDC42BPB, Homo sapiens, UniProt Q9Y5S2); cell-free assay, competition with immobilised ligand: 100%
Casein kinase II subunit alpha' (CSNK2A2, Homo sapiens, UniProt P19784); cell-free assay, competition with immobilised ligand: 100%
Cyclin-dependent kinase 19 (CDK19, Homo sapiens, UniProt Q9BWU1); competition binding: 79%
Casein kinase I isoform delta (CSNK1D, Homo sapiens, UniProt P48730); cell-free assay, competition with immobilised ligand: 81%
Mitogen-activated protein kinase kinase kinase 19 (MAP3K19, Homo sapiens, UniProt Q56UN5); cell-free assay, competition with immobilised ligand: 66%
Inhibitor of nuclear factor kappa-B kinase subunit alpha (CHUK, Homo sapiens, UniProt O15111); cell-free assay, competition with immobilised ligand: 67%
Serine/threonine-protein kinase haspin (HASPIN, Homo sapiens, UniProt Q8TF76); cell-free assay, competition with immobilised ligand: 65%
MAP/microtubule affinity-regulating kinase 4 (MARK4, Homo sapiens, UniProt Q96L34); cell-free assay, competition with immobilised ligand: 100%
Serine/threonine-protein kinase/endoribonuclease IRE1 (ERN1, Homo sapiens, UniProt O75460); cell-free assay, competition with immobilised ligand: 77%
Phosphatidylinositol 4,5-bisphosphate 3-kinase catalytic subunit alpha isoform (PIK3CA, Homo sapiens, UniProt P42336, Q546K); cell-free assay, competition with immobilised ligand: 91%
Ribosomal protein S6 kinase alpha-4, N-terminal kinase domain (RPS6KA4, Homo sapiens, UniProt O75676); cell-free assay, competition with immobilised ligand: 96%
MAP kinase-interacting serine/threonine-protein kinase 2 (MKNK2, Homo sapiens, UniProt Q9HBH9); cell-free assay, competition with immobilised ligand: 100%
Dual specificity mitogen-activated protein kinase kinase 4 (MAP2K4, Homo sapiens, UniProt P45985); cell-free assay, competition with immobilised ligand: 75%
Serine/threonine-protein kinase 10 (STK10, Homo sapiens, UniProt O94804); cell-free assay, competition with immobilised ligand: 76%
Mitogen-activated protein kinase kinase kinase 4 (MAP3K4, Homo sapiens, UniProt Q9Y6R4); cell-free assay, competition with immobilised ligand: 99%

For quick reference, copied from above (set 3):
Fc1ccc([C@@H]2CCNC[C@H]2COc2ccc3c(c2)OCO3)cc1.O=C(O)/C=C\C(=O)O: 0.07
CCC1=C[C@@H]2CN(C1)Cc1c([nH]c3ccccc13)[C@@](C(=O)OC)(c1cc3c(cc1OC)N(C)[C@H]1[C@@](O)(C(=O)OC)[C@H](OC(C)=O)[C@]4(CC)C=CCN5CC[C@]31[C@@H]54)C2.O=C(O)C(O)C(O)C(=O)O.O=C(O)C(O)C(O)C(=O)O: 0.18
CC(C)[N+](C)(CCOC(=O)C1c2ccccc2Oc2ccccc21)C(C)C.[Br-]: 0.49
COC(=O)C1=C(C)NC(C)=C(C(=O)O[C@@H]2CCCN(Cc3ccccc3)C2)[C@@H]1c1cccc([N+](=O)[O-])c1.Cl (racemic): -0.13
CC(C)[N+]1(C)[C@@H]2CC[C@H]1CC(OC(=O)C(CO)c1ccccc1)C2.[Br-] (stereo partly drawn): 0.31
